Measurements from different studies.
Protocols differ between the studies behind these lines. ± marks the error that the study gave.

Compound | assay | test system | setting | how to read | endpoint | value
CC(C)(O)c1ncc([S@](N)(=O)=NC(=O)Nc2c3c(cc4c2CCC4)CCC3)s1 |  | healthy human, urine and plasma | oral, day 14, multiple ascending dose |  | renal clearance | 0.113 to 0.152 mL/min
N=C(N)NCCC[C@@H]1NC(=O)[C@H](Cc2c[nH]c3ccccc23)NC(=O)[C@@H](CC2CCCCC2)NC(=O)[C@@H]2CCCN2C(=O)[C@@H](NC(=O)CCc2ccccc2)CCCNC1=O |  | C57BL/6J mice, spinal cord | subcutaneous, 1 mg/kg, two-compartment model |  | apparent distributional clearance | 0.07 ng/(min·ng/g)
COc1ccc(/N=N/c2ccc(OC[C@@H](O)CNC(C)C)cc2)cc1 | UV/Vis spectroscopy | Epac buffer with 0.5 % DMSO | 50 µM |  | pi-pi* absorption maximum, trans | 358 nm
CC1(C)OB(c2ccc(COC(=O)N[c-]3cccc3)cc2)OC1(C)C.[Fe+2].c1cc[cH-]c1 | cyclic and differential pulse voltammetry | acetonitrile | 23 °C | relative to: ferrocene/ferrocenium | E1/2 | -70 mV
Cn1c(=O)oc2ccc(-c3ccc(CC(C#N)NC(=O)C4CNCCCO4)c(F)c3)cc21 (stereo not shown) | refers to: glucose urine present | human | 80 mg single dose, fasted |  | subjects with TEAE | 0%
CN(C)c1ccc2c(-c3cc(C(=O)N4CCN(CCCOc5ccc6nccc(C(=O)NCC(=O)N7CC(F)(F)C[C@H]7C#N)c6c5)CC4)ccc3C(=O)[O-])c3ccc(=[N+](C)C)cc-3oc2c1 | intravital imaging | mouse B16-F10-GFP tumour, tumour fibroblasts | intravenous, 1 µM, 100 µL |  | fibroblast accumulation onset time | 30 min
CC(C)[C@H](NC(=O)CNC(=O)[C@H](CCC(N)=O)NC(=O)[C@H](C)N)C(=O)O | LC-MS/MS | human, male, plasma | intravenous, 30 mg/kg three times daily, day 3, first dose, 10 min infusion, geometric mean |  | half-life | 0.27 h
CN[C@@H](CCOc1cccc2ccccc12)c1ccccc1 |  | healthy male humans, plasma | oral, 60 mg of dapoxetine, together with: udenafil 200 mg |  | median Tmax | 2.25 h
COc1cc2c(cc1OC)CN(CCCCn1ccc3cc(OCC[18F])ccc31)C2 |  | ICR mice, male | intravenous, 2 min |  | brain/blood ratio | 1.36 ± 0.08
CCCC[C@H](NC(=O)CNC(=O)CNC(=O)CN1CCN(CC(=O)O)CCN(CC(=O)O)CC1)C(=O)N[C@H]1CC(=O)NCCCC[C@@H](C(N)=O)NC(=O)[C@H](Cc2c[nH]c3ccccc23)NC(=O)[C@H](CCCNC(=N)N)NC(=O)[C@@H](Cc2ccccc2)NC(=O)[C@H](Cc2c[nH]cn2)NC1=O [copper-64 labelled] |  | female C57 mouse, B16/F1 melanoma | intravenous, 0.037 MBq, 4 h | relative to: tumour over kidneys | uptake ratio | 3.6
CCCC[C@@H]1NC(=O)[C@@H](NC(=O)[C@H](CCC(=O)O)NC(=O)CNC(=O)CN2CCN(CC(=O)O)CCN(CC(=O)O)CCN(CC(=O)O)CC2)CCCCNC(=O)C[C@@H](C(N)=O)NC(=O)[C@H](C(C)C)NC(=O)[C@@H]2CCCN2C(=O)[C@H](CCCNC(=N)N)NC(=O)CNC(=O)[C@H](Cc2c[nH]c3ccccc23)NC(=O)[C@H](CCCNC(=N)N)NC(=O)[C@@H](Cc2ccccc2)NC(=O)[C@H](Cc2c[nH]cn2)NC(=O)[C@H](CCC(=O)O)NC1=O [gallium-67 labelled] |  | C57 mice, B16/F10 lung metastases, kidneys | intravenous, 0.037 MBq/mouse, 2 h |  | tissue uptake | 29.7 ± 6.55 %ID/g
CCCC[C@H](NC(=O)CN1CCC(NC(=O)CN2CCN(CC(=O)O)CCN(CC(=O)O)CCN(CC(=O)O)CC2)CC1)C(=O)N[C@H]1CC(=O)NCCCC[C@@H](C(N)=O)NC(=O)[C@H](Cc2c[nH]c3ccccc23)NC(=O)[C@H](CCCNC(=N)N)NC(=O)[C@@H](Cc2ccccc2)NC(=O)[C@H](Cc2c[nH]cn2)NC1=O [gallium-68 labelled] |  | male C57BL/6J mice, B16-F10 tumours, tumour, blood | intravenous, 1 h, blocking study, together with: 100 µg non-radioactive Ga-peptide | relative to: tumour over blood | uptake ratio | 0.8 ± 0.2
NCCCC[C@H](NC(=O)[C@@H]1CCCN1C(=O)[C@@H]1CSSC[C@H](N)C(=O)N[C@@H](Cc2ccc(O)cc2)C(=O)N[C@@H](Cc2ccccc2)C(=O)N[C@@H](CCC(N)=O)C(=O)N[C@@H](CC(N)=O)C(=O)N1)C(=O)NCC(N)=O |  | Sprague Dawley rats | sc, 0.2 mg/kg terlipressin, metabolite, normalised to 0.1 mg/kg |  | dose-normalised AUC | 2.5 ng·h/mL
CCCC[C@H](NC(=O)CNC(=O)CNC(=O)CN1CCN(CC(=O)O)CCN(CC(=O)O)CC1)C(=O)N[C@H]1CC(=O)NCCCC[C@@H](C(N)=O)NC(=O)[C@H](Cc2c[nH]c3ccccc23)NC(=O)[C@H](CCCNC(=N)N)NC(=O)[C@@H](Cc2ccccc2)NC(=O)[C@H](Cc2c[nH]cn2)NC1=O [gallium-67 labelled] |  | C57 mice, female, B16/F1 melanoma, tumour over blood | intravenous, 0.037 MBq, 4 h |  | tumour to tissue uptake ratio | 17.8
CC(NC(=O)OC1OC(C(=O)O)C(O)C(O)C1O)c1cc(Cl)ccc1Cn1c(=S)[nH]c(=O)c2[nH]ccc21 (stereo not shown) | equilibrium dialysis | male Han Wistar rat plasma | 16 h, pH 7.4 |  | recovery | > 84%
CC(C)(Sc1cc[n+]([O-])cc1-c1ccc(C#N)c2ccccc12)C(=O)OC1OC(C(=O)O)C(O)C(O)C1O (stereo not shown) |  | adult men, urine | oral, 15 mg verinurad, mild renal impairment | relative to: impaired over normal renal function | renal clearance ratio (0-72 h) | 73.9%
C=C(c1ccc(C(=O)O)c(F)c1)c1cc2c(cc1C)C(C)(C)C=CC2(C)C |  | Sprague-Dawley rat, male | oral, 100 mg/kg, 2 h, sesame oil vehicle |  | blood triglycerides | 98 ± 18.2 mg/dL

Compound | assay | test system | setting | how to read | endpoint | value
O=C(NCCCN(CCCCN(CCCNC(=O)c1cccc(=O)n1[O-])C(=O)c1cccc(=O)n1[O-])C(=O)c1cccc(=O)n1[O-])c1cccc(=O)n1[O-].[89Zr+4] | radio-TLC | PBS | 1 h, pH 7.4, 37 °C, together with: Zn^2+ 10-fold excess |  | intact complex | 98.6 ± 2%
COc1ccc(/C=C/c2ccc(-c3ccc(C)cn3)nc2)cc1 | TCSPC | DMSO |  |  | fluorescence lifetime | 0.86 ns
C=CC(=O)Nc1cc(Nc2nccc(-c3cn(C)c4ccccc34)n2)c(OC)cc1N(C)CCN(C)C | UHPLC-MS/MS | human, finger-prick dried blood spot | oral, 80 mg daily |  | steady-state trough concentration | 203 ng/mL
CC(C)(Sc1ccncc1-c1ccc(C#N)c2ccccc12)C(=O)OC1OC(C(=O)O)C(O)C(O)C1O (stereo not shown) |  | urine | oral, 15 mg, severe renal impairment | relative to: normal renal function | renal clearance decrease | 90%
CC(OC1OC(C(=O)O)C(O)C(O)C1O)c1nc(-c2ccc3c(c2)CCC3NC(=O)c2cnn(C)c2)no1 (stereo not shown) |  | human, pooled urine | oral, 20 mg | relative to: dose | radioactive dose excreted in urine | 0.885%
CCCCCCCCC=CCCCCCCCC(=O)OC(COC(=O)Cc1c(C)n(C(=O)c2ccc(Cl)cc2)c2ccc(OC)cc12)COP(=O)([O-])OCC[N+](C)(C)C (stereo not shown) | dialysis | ethanol/PBS | 10 h, pH 7.4, 37 °C |  | cumulative release | 91.8 ± 4.33%
O=C([O-])CN1CCN(CC(=O)[O-])CCN(CC(=O)NC[C@H]2CC[C@H](C(=O)N[C@H](Cc3cnc4ccccc4c3)C(=O)NCCCC[C@H](NC(=O)N[C@@H](CCC(=O)O)C(=O)O)C(=O)O)CC2)CCN(CC(=O)[O-])CC1.[64Cu+2] | PET/CT, OLINDA/EXM dosimetry | healthy human volunteers, osteogenic cells |  |  | absorbed dose | 0.0108 mGy/MBq
Cc1ncnc2c1c(C1=CCSCC1)cn2[C@@H]1O[C@H](CO)[C@@H](O)[C@H]1O | microscopy | primary peritoneal macrophages, Swiss mouse | 5 days |  | CC50 | > 64 µM
Oc1c(Br)cc(Br)c2nc3c(C(F)(F)F)cc(C(F)(F)F)cc3nc12 |  | human red blood cells | 200 µM, 1 h, pH 7.2, 37 °C |  | hemolysis | 7.8%
COC(=O)c1ccc(-c2cn(Cc3cc(Cl)ccc3O[11CH3])nn2)cc1 | PET/MR | rhesus monkey, whole brain | iv |  | peak SUV | > 3
CC/C=C\C/C=C\C/C=C\C/C=C\C/C=C\CCCCOC(CC)C(=O)O (stereo not shown) |  | Wistar rat, male, portal vein blood, mesenteric lymph | oral, 100 mg/kg, portal plasma flow 522 mL/h, lymph flow 0.5 mL/h |  | fraction absorbed via portal vein | > 99%
COc1cc(C)c(Cc2ccc(O)cc2)cc1[C@@H]1S[C@H](CO)[C@@H](O)[C@H](O)[C@H]1O |  | Japanese T2DM patients, plasma | 2.5 mg luseogliflozin, day 7, once daily | relative to: compound over luseogliflozin | AUC(0-τ) ratio | 0.14 ± 0.0244
COC[C@@H](CC(C)C)NC(=O)c1ccc(C)c(CO)c1 | LC-MS | human liver microsomes | 10 µM of parent drug, 20 min, pH 7.4, together with: NADPH | relative to: parent drug at time zero | metabolite peak area | 1.8%
Oc1ccc2ccccc2c1/N=N/c1ccccc1 |  | extracted rat blood QC samples | 5.0 µg/L, 2 h, room temperature, short-term stability |  | measured concentration | 4.94 µg/L
CC(C)[C@H](NC(=O)[C@@H]1CCCN1C(=O)[C@H](CCCNC(=N)N)NC(=O)[C@H](CS)NC(=O)[C@H](Cc1c[nH]c2ccccc12)NC(=O)[C@H](CCCNC(=N)N)NC(=O)[C@@H](Cc1ccccc1)NC(=O)[C@H](Cc1c[nH]cn1)NC(=O)[C@H](CCC(=O)O)NC(=O)[C@H](CS)NC(=O)[C@H](CS)NC(=O)[C@@H]1CC(=O)N[C@@H](CCCNC(=N)N)C(=O)NCC(=O)N[C@@H](CC(=O)O)C(=O)N[C@H](Cc2ccc(O)cc2)C(=O)N1)C(N)=O [technetium-99m labelled] |  | C57 mouse, female, B16/F1 melanoma | intravenous, 0.037 MBq, 24 h | relative to: tumour over lung | tumour to tissue ratio | 23.9
O=C(Nc1nccs1)C(c1cc(F)ccc1O)N1Cc2ccccc2C1=O (stereo not shown) |  | mouse plasma, low QC | 6 ng/mL, 1.5 months, -30 °C |  | recovery | 101 ± 2.9%
CCN(CC)CC#CCNc1ccnc2cc(Cl)ccc12 |  | 100 mM phosphate buffer | pH 7.4 |  | thermodynamic solubility | > 1200 µM
